Results from different studies.
Compare with care: the assays were run in different laboratories. Values joined by “and” are separate records of one study, mostly repeats; a detail may differ. Numbers after ± are the reported error. ≈ marks a conversion by molar mass, not a printed value.

With Cc1ccc(OCCc2cc(F)cc(F)c2)c(C(=O)NCC2CC2)c1 the IC90 was 6.1 ± 1.6 µM (Mycobacterium tuberculosis; growth; H37Rv-LP; 120 h).
With COc1ccc2cc1Oc1ccc(cc1)C[C@H]1c3cc(c(OC)cc3CCN1C)Oc1c(OC)c(OC)cc3c1[C@@H](C2)N(C)CC3 the IC50 was 5.02 ± 0.53 µM (Influenza A virus; viral replication; MDCK, A/HanFang/359/95 (H3N2); 48 h).
Cn1c(=O)ccc2ccc(F)c(CCNC[C@H]3CN(c4cnc5c(n4)NC(=O)CO5)C(=O)O3)c21 gave an MIC50 of 0.06 µg/mL (≈ 0.128 µM) (Burkholderia cepacia).
With CCNC(=O)[C@@H](NC(=O)c1ccccc1NC(=O)c1ccc(OC)cc1)C(C)C the EC50 was greater than 50 µM (human coronavirus 229E; viral replication, plaque reduction; MRC-5; 6 days).
COc1ccc(-c2cc(C(F)(F)F)c3c(N)c(C(=O)N4CCCC4)sc3n2)cc1 — result for IC90: “inactive” (Mycobacterium tuberculosis; H37Rv wild type; 120 h).
With CC(C)c1ccc2[nH]c(=S)n(Cc3cccnc3)c(=O)c2c1 the MIC90 was 7.6 µM (≈ 2.37 µg/mL) (Mycobacterium tuberculosis; PptT conditional knockdown).
With CCOC(=O)c1c(C)nc(NCCCNc2ccnc3cc(Cl)ccc23)nc1C the EC50 was greater than 100 µM (parainfluenza virus 3; viral replication; Vero).
NC(=O)c1cncc(Cn2c(=S)[nH]c3ccc(Cl)cc3c2=O)c1 has an MIC90 of 0.67 µM (≈ 0.232 µg/mL) (Mycobacterium tuberculosis; PptT conditional knockdown).
For CNC(=O)c1cc(C)ccc1OCCc1cc(F)cc(F)c1, the selectivity index was 86 (Mycobacterium tuberculosis; H37Rv-LP; baseline: HepG2 CC50 over Mtb IC90).
The MIC90 of O=c1c2cc(Cl)cnc2[nH]c(=S)n1Cc1cccnc1 is reported as 7.13 µM (≈ 2.17 µg/mL) (Mycobacterium tuberculosis; PptT conditional knockdown).
The selectivity index of NC(=O)c1cc(-c2cscn2)ccc1OCCc1cccc(F)c1 is reported as 0.08 (Mycobacterium tuberculosis; H37Rv-LP; baseline: HepG2 CC50 over Mtb IC90).
With CN(C)CCC(c1cccnc1)n1c(=S)[nH]c2ccc(Cl)cc2c1=O (centres unmarked) the MIC90 was greater than 100 µM (Mycobacterium tuberculosis; PptT conditional knockdown).
The IC90 of CNC(=O)c1cc(C(F)F)ccc1OCCc1cccc(F)c1 is reported as 2.4 ± 0.25 µM (Mycobacterium tuberculosis; growth; H37Rv-LP; 120 h).
OC(Cn1cncn1)(Cn1cncn1)c1ccc(F)cc1F gave an OD600 of 0.889 and 0.966 and 1 (Saccharomyces cerevisiae; cell growth; Pdr5 deleted, Cdr1 overexpressed; 2^4.322 µg/mL).
NC(=O)c1ncn([C@@H]2O[C@H](CO)[C@@H](O)[C@H]2O)n1 gave a reporter activity of 53.1% (lymphocytic choriomeningitis virus; reporter gene; BHK-21; 50 µM, minigenome, Gaussia luciferase; baseline: DMSO).
O=c1c2cc(Cl)c(CO)cc2[nH]c(=S)n1Cc1cccnc1 gave an MIC90 of 0.44 µM (≈ 0.147 µg/mL) (Mycobacterium tuberculosis; PptT conditional knockdown).
Under IC90, COc1ccc(-c2cc(C(F)(F)F)c3c(N)c(C(=O)N4CCCC4(C)C)sc3n2)cc1 is recorded as “inactive” (Mycobacterium tuberculosis; H37Rv wild type; 120 h).
CC[C@H](C)[C@H](NC(=O)[C@H](CCCCN)NC(=O)[C@@H](NC(=O)[C@H](Cc1ccc(O)cc1)NC(=O)[C@H](CCCCN)NC(=O)[C@H](CCCCN)NC(=O)CNC(=O)[C@H](CCCCN)NC(=O)[C@@H](NC(=O)[C@H](C)NC(=O)[C@H](CC(C)C)NC(=O)[C@H](Cc1c[nH]c2ccccc12)NC(=O)CNC(=O)[C@@H](NC(=O)[C@H](Cc1ccccc1)NC(=O)[C@H](CCCCN)NC(=O)[C@H](CC(C)C)NC(=O)[C@H](Cc1ccccc1)NC(=O)[C@H](C)NC(=O)CNC(=O)[C@@H](N)CCSC)C(C)C)[C@@H](C)O)C(C)C)C(=O)N[C@@H](C)C(=O)N[C@@H](Cc1c[nH]c2ccccc12)C(=O)N[C@@H](CC(=O)O)C(=O)N[C@@H](Cc1c[nH]cn1)C(=O)N[C@@H](CCCCN)C(=O)NCC(=O)N[C@H](C(=O)N[C@H](C(=O)N[C@@H](CCSC)C(=O)N[C@@H](CCCCN)C(=O)N[C@@H](Cc1c[nH]c2ccccc12)C(=O)N[C@@H](CC(C)C)C(=O)N[C@@H](CC(N)=O)C(=O)N[C@@H](C)C(=O)NCC(=O)N[C@@H](CCC(N)=O)C(=O)N[C@H](C(=O)N[C@@H](Cc1ccccc1)C(=O)N[C@H](C(=O)N[C@@H](Cc1c[nH]c2ccccc12)C(=O)N[C@H](C(=O)N[C@@H](Cc1ccc(O)cc1)C(=O)N[C@@H](CCC(=O)O)C(=O)N[C@@H](CCC(N)=O)C(=O)N[C@H](C(=O)N[C@@H](CCCCN)C(=O)N[C@@H](CCCCN)C(=O)N[C@@H](CC(C)C)C(=O)N[C@@H](Cc1c[nH]c2ccccc12)C(=O)N[C@H](C(=O)O)[C@@H](C)O)[C@@H](C)CC)C(C)C)[C@@H](C)O)[C@@H](C)O)[C@@H](C)CC)[C@@H](C)O has an MIC of greater than 62.5 µg/mL (Salmonella Paratyphi; CECT 554; 37 °C, non-formylated synthetic).
For CNC(=O)c1cc(C)ccc1OCCc1ccc(C2CC2)cc1, the IC90 was 0.09 ± 0.02 µM (Mycobacterium tuberculosis; growth; H37Rv-LP; 120 h).
CC(C)[C@H](NC(=O)[C@H](CCCNC(=N)N)NC(=O)N[C@@H](Cc1ccccc1)C(=O)O)C(=O)N[C@H](C=O)CCCNC(=N)N has an EC50 of 2 ± 0.2 µM (human coronavirus 229E; viral replication; Huh7.5).
COc1ccc2cc1Oc1ccc(cc1)C[C@H]1c3c(cc4c(c3Oc3cc5c(cc3OC)CCN(C)[C@@H]5C2)OCO4)CCN1C has an IC50 of 3.25 ± 0.07 µM (Influenza A virus; viral replication; MDCK, A/HanFang/359/95 (H3N2); 48 h).
For O=c1c2cc(Cl)ccc2[nH]c(=S)n1Cc1ccc(-c2ccccc2)nc1, the MIC90 was 2.88 µM (≈ 1.09 µg/mL) (Mycobacterium tuberculosis; PptT conditional knockdown).
With CCC(NC(=O)c1sc2nc(-c3ccc(OC)cc3)cc(C(F)(F)F)c2c1N)c1ccccc1 (centres unmarked) the selectivity index was greater than 135 (Mycobacterium tuberculosis; H37Rv wild type; baseline: HepG2 IC50 over M. tuberculosis IC90).
With NC(=O)c1cc(F)ccc1OCCc1cccc(F)c1 the IC90 was 68 ± 11 µM (Mycobacterium tuberculosis; growth; H37Rv-LP; 120 h).
Nc1ncnc2c1ncn2C[C@H](O)CO has an EC50 of greater than 250 µM (parainfluenza virus 3; viral replication; Vero).
COc1ccc(C(=O)Nc2ccccc2C(=O)N[C@H](C(=O)N[C@H](CO)C(C)C)C(C)C)cc1 gave an EC50 of greater than 50 µM (human coronavirus 229E; viral replication, plaque reduction; MRC-5; 6 days).
With NC(=O)c1nc(F)c[nH]c1=O the reporter activity was 69.6% (lymphocytic choriomeningitis virus; reporter gene; BHK-21; 100 µM, minigenome, Gaussia luciferase; baseline: DMSO).
COc1c(N2CC3CCCNC3C2)c(F)cc2c(=O)c(C(=O)OCc3cnc([N+](=O)[O-])s3)cn(C3CC3)c12 (centres unmarked) gave an MIC of 0.06 µM (Mycobacterium chelonae; ATCC 35752).
For COCCC(c1cccnc1)n1c(=S)[nH]c2ccc(Cl)cc2c1=O (centres unmarked), the MIC90 was greater than 100 µM (Mycobacterium tuberculosis; PptT conditional knockdown).
With Cc1ncc([N+](=O)[O-])n1CCO the MIC was greater than 256 µg/mL (Burkholderia cepacia; 6349).
Nc1c(C(=O)N2CCOCC2)sc2nc(-c3ccoc3)ccc12 — result for IC90: “inactive” (Mycobacterium tuberculosis; H37Rv wild type; 120 h).
CC(=O)N[C@H]1[C@H]([C@H](O)[C@H](O)CO)OC(C(=O)O)=C[C@@H]1O has an EC50 of 20 µM (Influenza A virus; viral replication; A/Paris/908/97 (H3N2); 72 h).
The IC50 of COc1ccc(-c2cc(C(F)(F)F)c3c(N)c(C(=O)Nc4ccc(C)c(C)c4)sc3n2)cc1 is reported as greater than 100 µM (Mycobacterium tuberculosis; growth inhibition; H37Rv LepB under-expressing).
With C[C@H](N)C(=O)OCc1cc2[nH]c(=S)n(Cc3cncnc3)c(=O)c2cc1Cl the MIC90 was 0.29 µM (≈ 0.118 µg/mL) (Mycobacterium tuberculosis; PptT conditional knockdown).
The IC50 of COc1ccc(-c2cc(C(F)(F)F)c3c(N)c(C(=O)N4CC(C)OC(C)C4)sc3n2)cc1 (centres unmarked) is reported as greater than 50 µM (Mycobacterium tuberculosis; growth inhibition; H37Rv LepB under-expressing).
O=C(O)c1cn(C2CC2)c2cc(N3CCNCC3)c(F)cc2c1=O has an MIC of 1 µg/mL (Burkholderia cepacia; 6349).
CCOC(=O)c1c(C)nc(NCCCCNc2ccnc3cc(Cl)ccc23)nc1-c1ccccc1 has an EC50 of greater than 100 µM (parainfluenza virus 3; viral replication; Vero).
With Cc1ccc(OC2CC(c3ccccc3)C2)c(C(N)=O)c1 (centres unmarked) the IC90 was 66 ± 12 µM (Mycobacterium tuberculosis; growth; H37Rv-LP; 120 h).
Nc1c(C(=O)N2CCOCC2)sc2nc(-c3ccc(F)cc3)ccc12 has an IC50 of 21 ± 8 µM (Mycobacterium tuberculosis; growth inhibition; H37Rv LepB under-expressing).
The selectivity index of Cc1cnc(OCCc2cccc(F)c2)c(C(N)=O)c1 is reported as 1 (Mycobacterium tuberculosis; H37Rv-LP; baseline: HepG2 CC50 over Mtb IC90).
COCCNC(=O)c1sc2nc(-c3ccc(OC)cc3)cc(C(F)(F)F)c2c1N gave an IC50 of greater than 100 µM (Mycobacterium tuberculosis; growth inhibition; H37Rv LepB under-expressing).
